{"data": "Measurements gathered from unrelated publications", "note": "Each numbered part is a random draw from the data of one study; scales do not carry over between parts. Values joined by “and” are separate records of one study, mostly repeats; a detail may differ.", "chain of UniProt Q06418 (whole entry, looked up)": "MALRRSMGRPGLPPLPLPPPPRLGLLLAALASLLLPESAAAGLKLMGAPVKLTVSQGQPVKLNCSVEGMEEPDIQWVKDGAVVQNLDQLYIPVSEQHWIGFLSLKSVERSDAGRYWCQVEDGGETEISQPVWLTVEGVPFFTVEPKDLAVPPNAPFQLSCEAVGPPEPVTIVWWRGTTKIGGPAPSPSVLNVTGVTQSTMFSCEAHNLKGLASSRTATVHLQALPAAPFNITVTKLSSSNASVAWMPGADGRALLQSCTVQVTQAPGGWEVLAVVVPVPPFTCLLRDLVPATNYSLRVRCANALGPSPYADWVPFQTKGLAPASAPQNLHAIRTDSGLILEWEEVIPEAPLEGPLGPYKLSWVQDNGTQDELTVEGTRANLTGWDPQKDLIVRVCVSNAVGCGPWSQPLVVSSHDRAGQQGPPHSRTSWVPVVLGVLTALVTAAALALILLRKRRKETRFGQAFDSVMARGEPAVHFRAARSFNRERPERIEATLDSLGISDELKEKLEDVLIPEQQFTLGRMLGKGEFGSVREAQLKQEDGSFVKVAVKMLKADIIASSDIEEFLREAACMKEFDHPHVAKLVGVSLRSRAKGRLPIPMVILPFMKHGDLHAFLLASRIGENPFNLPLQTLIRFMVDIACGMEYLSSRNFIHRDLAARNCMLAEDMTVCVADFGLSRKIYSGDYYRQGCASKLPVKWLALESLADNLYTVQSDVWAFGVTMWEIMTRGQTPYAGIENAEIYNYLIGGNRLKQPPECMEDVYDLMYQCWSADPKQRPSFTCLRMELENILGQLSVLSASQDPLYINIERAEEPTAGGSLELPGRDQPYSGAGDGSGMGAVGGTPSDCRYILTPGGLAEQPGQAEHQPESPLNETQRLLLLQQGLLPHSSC", "chain of UniProt O00750 (whole entry, looked up)": "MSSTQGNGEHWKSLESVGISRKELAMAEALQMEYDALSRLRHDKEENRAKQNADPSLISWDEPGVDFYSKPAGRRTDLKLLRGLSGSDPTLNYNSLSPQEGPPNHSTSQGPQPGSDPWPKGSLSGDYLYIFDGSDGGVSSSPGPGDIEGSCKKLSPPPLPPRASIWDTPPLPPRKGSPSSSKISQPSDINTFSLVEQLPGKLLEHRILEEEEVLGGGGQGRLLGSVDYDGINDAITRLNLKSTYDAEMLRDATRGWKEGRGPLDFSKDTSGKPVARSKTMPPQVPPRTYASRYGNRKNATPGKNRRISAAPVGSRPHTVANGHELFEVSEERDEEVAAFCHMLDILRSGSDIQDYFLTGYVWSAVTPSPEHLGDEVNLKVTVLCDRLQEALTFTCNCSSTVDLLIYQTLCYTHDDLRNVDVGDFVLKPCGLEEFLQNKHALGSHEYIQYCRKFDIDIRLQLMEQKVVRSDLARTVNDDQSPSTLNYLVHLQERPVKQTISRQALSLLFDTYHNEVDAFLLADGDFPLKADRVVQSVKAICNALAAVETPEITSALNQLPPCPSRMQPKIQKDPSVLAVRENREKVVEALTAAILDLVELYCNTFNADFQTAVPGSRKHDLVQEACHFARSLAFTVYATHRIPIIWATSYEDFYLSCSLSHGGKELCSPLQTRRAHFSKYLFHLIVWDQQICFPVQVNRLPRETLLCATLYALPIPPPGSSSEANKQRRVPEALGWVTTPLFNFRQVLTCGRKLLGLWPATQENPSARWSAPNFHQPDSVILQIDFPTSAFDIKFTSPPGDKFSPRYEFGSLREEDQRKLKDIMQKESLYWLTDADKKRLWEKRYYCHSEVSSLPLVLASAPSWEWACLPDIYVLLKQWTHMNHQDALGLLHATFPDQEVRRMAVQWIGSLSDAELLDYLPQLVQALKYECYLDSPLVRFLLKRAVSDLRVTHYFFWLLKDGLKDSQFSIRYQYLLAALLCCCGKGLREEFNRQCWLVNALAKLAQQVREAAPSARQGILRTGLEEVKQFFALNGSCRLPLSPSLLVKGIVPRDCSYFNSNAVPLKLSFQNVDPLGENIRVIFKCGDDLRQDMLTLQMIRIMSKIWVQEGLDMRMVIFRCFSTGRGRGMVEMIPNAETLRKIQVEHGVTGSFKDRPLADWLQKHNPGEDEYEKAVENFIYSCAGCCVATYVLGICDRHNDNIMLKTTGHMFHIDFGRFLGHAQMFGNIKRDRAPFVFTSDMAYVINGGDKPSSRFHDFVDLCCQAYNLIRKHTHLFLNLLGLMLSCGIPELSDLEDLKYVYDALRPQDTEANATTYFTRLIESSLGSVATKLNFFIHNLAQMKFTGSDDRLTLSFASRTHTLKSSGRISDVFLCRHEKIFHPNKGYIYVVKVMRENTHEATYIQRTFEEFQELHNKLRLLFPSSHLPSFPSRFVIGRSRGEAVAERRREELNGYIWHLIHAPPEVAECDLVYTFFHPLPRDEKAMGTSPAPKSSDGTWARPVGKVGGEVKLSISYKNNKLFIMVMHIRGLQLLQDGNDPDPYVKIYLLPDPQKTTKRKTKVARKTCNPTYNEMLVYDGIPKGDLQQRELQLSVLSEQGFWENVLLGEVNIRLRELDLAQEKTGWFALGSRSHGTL", "chain of UniProt Q15418 (whole entry, looked up)": "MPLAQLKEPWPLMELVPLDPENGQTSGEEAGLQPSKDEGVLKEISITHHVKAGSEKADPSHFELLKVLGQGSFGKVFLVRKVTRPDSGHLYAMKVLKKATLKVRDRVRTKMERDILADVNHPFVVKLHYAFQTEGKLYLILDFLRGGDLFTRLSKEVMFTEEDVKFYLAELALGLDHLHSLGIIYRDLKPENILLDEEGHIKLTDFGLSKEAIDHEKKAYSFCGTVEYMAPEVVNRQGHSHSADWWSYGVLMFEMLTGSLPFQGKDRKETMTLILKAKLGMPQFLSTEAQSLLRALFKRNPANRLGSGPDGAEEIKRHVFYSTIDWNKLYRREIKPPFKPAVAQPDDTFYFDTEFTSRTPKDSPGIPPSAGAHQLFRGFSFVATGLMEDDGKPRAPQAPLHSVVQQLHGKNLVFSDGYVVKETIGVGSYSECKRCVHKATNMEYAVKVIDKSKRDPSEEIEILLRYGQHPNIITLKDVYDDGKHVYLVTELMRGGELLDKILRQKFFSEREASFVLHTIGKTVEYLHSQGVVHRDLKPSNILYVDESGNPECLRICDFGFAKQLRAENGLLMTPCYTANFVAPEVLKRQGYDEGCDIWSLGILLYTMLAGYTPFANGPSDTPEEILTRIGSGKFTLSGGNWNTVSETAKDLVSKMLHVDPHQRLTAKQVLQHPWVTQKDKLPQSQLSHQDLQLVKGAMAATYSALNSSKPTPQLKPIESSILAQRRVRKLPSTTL", "chain of UniProt Q07002 (whole entry, looked up)": "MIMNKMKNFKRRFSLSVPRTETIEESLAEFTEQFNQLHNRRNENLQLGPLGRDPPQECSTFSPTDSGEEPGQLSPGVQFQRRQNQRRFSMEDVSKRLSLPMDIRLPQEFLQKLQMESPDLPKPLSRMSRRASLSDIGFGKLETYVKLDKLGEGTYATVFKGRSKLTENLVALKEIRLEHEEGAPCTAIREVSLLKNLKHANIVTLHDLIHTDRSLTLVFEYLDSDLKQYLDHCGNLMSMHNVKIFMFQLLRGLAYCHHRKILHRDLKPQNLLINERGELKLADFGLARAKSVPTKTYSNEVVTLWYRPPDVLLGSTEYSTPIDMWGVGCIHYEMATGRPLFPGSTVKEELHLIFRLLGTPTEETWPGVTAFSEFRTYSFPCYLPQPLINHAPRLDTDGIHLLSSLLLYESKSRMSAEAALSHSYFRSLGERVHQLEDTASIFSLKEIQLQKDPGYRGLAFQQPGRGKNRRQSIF", "chain of UniProt P36897 (whole entry, looked up)": "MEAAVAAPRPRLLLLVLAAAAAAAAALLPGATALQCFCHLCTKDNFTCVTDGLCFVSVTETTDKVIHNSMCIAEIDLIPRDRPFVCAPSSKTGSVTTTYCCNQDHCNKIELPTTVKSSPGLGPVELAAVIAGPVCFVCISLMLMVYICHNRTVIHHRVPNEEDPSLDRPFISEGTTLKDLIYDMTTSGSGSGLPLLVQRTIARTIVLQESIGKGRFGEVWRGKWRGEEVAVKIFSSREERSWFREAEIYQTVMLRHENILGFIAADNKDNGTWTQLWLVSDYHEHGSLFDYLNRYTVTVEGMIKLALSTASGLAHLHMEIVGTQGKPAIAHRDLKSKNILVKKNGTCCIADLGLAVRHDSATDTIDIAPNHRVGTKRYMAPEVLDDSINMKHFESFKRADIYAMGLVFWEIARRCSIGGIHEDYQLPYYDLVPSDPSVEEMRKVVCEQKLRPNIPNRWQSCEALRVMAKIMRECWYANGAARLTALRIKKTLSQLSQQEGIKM", "chain of UniProt Q9HC98 (whole entry, looked up)": "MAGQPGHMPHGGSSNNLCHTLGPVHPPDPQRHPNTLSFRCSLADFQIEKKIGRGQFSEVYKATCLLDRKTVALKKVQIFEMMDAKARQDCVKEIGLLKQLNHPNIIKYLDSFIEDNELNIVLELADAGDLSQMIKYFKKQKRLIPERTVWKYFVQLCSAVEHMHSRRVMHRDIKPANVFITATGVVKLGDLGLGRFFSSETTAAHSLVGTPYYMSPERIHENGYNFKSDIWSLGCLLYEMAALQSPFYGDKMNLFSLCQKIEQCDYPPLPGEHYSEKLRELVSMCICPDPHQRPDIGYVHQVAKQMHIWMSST"}
{"data": "Study 1", "Structure (SMILES)": "CC(C)n1cnc(-c2ccc(F)cc2)c1-c1ncc(C(=O)Nc2ccc(N3CCN(C)CC3)cc2)[nH]1", "technique": "phase 2a trial", "host": "idiopathic pulmonary fibrosis patients"}
{"conditions": "60 mg once daily, grade 3 emergent event", "patients with rhinorrhoea [%]": 0}
{"conditions": "30 mg once daily, grade 5 emergent event", "patients with rhinorrhoea [%]": 0}
{"conditions": "all arms, grade 4 emergent event", "patients with rhinorrhoea [%]": 0}
{"conditions": "all arms, grade 2 emergent event", "patients with rhinorrhoea [%]": 0}
{"data": "Study 2", "target": "Ephrin type-A receptor 8 (EPHA8, Homo sapiens, UniProt P29322)", "effect on": "enzyme activity", "action": "inhibitor", "concentration": "0.5 µM", "baseline": "control", "Target sequence (P29322 1-1005)": "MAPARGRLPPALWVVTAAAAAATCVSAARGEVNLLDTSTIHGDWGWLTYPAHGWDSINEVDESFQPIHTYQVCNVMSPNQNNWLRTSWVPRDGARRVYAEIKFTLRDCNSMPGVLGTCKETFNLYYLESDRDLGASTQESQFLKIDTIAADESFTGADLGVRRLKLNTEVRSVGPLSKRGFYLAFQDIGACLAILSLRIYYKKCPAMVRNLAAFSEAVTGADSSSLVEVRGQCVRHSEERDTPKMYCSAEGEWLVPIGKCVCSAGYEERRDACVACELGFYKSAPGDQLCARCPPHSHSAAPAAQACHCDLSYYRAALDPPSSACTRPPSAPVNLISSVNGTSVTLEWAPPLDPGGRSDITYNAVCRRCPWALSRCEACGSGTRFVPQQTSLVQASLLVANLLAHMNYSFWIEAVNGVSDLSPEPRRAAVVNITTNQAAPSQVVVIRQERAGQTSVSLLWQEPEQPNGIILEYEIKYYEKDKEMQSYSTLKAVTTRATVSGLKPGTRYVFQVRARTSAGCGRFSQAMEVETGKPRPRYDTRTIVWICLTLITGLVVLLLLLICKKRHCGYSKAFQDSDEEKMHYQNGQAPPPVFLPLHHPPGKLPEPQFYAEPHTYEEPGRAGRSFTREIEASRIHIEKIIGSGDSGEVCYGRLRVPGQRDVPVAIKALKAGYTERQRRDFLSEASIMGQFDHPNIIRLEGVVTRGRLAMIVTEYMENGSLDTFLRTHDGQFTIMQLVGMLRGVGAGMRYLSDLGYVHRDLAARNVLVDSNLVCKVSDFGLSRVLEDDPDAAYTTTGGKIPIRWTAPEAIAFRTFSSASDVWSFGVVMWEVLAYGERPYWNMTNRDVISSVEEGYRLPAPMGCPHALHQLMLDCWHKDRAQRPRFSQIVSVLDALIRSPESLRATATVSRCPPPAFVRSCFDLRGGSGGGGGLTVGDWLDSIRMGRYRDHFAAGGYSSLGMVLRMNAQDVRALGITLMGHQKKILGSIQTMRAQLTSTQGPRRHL"}
{"SMILES": "COc1cc(Nc2c(C#N)cnc3cc(OCCCN4CCN(C)CC4)c(OC)cc23)c(Cl)cc1Cl", "remaining activity [%]": 10.5}
{"SMILES": "COc1ccc(S(=O)(=O)N(CCO)c2ccccc2CN(C)CC=Cc2ccc(Cl)cc2)cc1", "remaining activity [%]": 100}
{"SMILES": "Oc1ccc(Nc2nc(-c3ccc(Cl)cc3)cs2)cc1", "remaining activity [%]": 93.4}
{"SMILES": "CCc1[nH]c(-c2ccc(OC)cc2)nc1-c1ccncc1", "remaining activity [%]": 93.5}
{"SMILES": "Cc1cncc2cccc(S(=O)(=O)N3CCCN(C(=O)CN)C[C@@H]3C)c12", "remaining activity [%]": 95}
{"SMILES": "Fc1ccc(-c2nc3n(c2-c2ccncc2)CCS3)cc1", "remaining activity [%]": 88.2}
{"SMILES": "NC(=O)c1ccc(N(C(N)=O)c2c(F)cccc2F)nc1-c1ccc(F)cc1F", "remaining activity [%]": 98.7}
{"SMILES": "Cc1ccc(NC2=CC(=O)c3sc(C)nc3C2=O)cc1", "remaining activity [%]": 94.1}
{"SMILES": "Nc1nc(Nc2ccc(S(N)(=O)=O)cc2)nn1C(=O)c1c(F)cccc1F", "remaining activity [%]": 109}
{"SMILES": "CCCC(=O)Oc1ccc2[nH]c(C(=O)c3cc4ccccc4[nH]3)cc2c1", "remaining activity [%]": 98}
{"SMILES": "Nc1ncnc2c1cnn2-c1ccccc1", "remaining activity [%]": 90.5}
{"data": "Study 3", "host": "mouse", "medium": "microsomes or S9", "concentration": "2 µM", "time": "0.5 h"}
{"SMILES": "CC(C)c1nn(C)c(Cl)c1CNCc1ccccc1CO", "remaining compound": "7.27%"}
{"SMILES": "CC1(COc2ccc(Br)cc2)CCC(C(C)(C)C)=NO1 (stereo not shown)", "remaining compound": "79.5%"}
{"SMILES": "Cc1cc2cc(NC(=O)c3cc4nccc(-c5cnn(C)c5C)n4n3)cc(Cl)c2o1", "remaining compound": "> 100%"}
{"SMILES": "O=C(NC1CCS(=O)(=O)C1)c1ccc(Br)cc1 (stereo not shown)", "remaining compound": "97.2%"}
{"SMILES": "CCCNC(=O)NC(=O)CNC1(C(=O)OC(C)(C)C)CCCC1", "remaining compound": "0.524%"}
{"SMILES": "COc1ccc(NC(=O)CCc2c(C)n(Cc3ccccc3)c3nc(-c4ccccc4)nn3c2=O)cc1", "remaining compound": "1.71%"}
{"SMILES": "Cc1ccc(-c2noc(CCC(=O)NC(C)c3ccc(Cl)cc3)n2)c(=O)n1C(C)C (stereo not shown)", "remaining compound": "0.0801%"}
{"SMILES": "CCOC(=O)CC1C(=O)NCCN1S(=O)(=O)c1ccc(C)cc1 (stereo not shown)", "remaining compound": "24%"}
{"SMILES": "O=C(N1CCn2c1nc1ccccc12)C1(c2cccs2)CCCC1", "remaining compound": "1.96%"}
{"SMILES": "COc1cc(=O)[nH]cc1C(=O)N1CCOC(C)(c2ccccc2)C1 (stereo not shown)", "remaining compound": "88.5%"}
{"SMILES": "COCCNC(=O)NC1(c2nc(C)no2)CCCCC1", "remaining compound": "94.1%"}
{"SMILES": "Cc1cnn(C2CCN(C(=O)c3ccc(-c4cc[nH]n4)s3)C2)c1 (stereo not shown)", "remaining compound": "55.4%"}
{"SMILES": "CC(C)(C)c1nnc2ccc(NC3CCCc4cn(C5CCCC5)nc43)nn12 (stereo not shown)", "remaining compound": "25.4%"}
{"data": "Study 4", "organism": "Sarcocystis neurona", "effect on": "parasite growth", "concentration": "10 µM", "time": "96 h", "setting": "first screen"}
{"Structure (SMILES)": "O=C(O)CCc1nc(-c2ccccc2)c(-c2ccccc2)o1", "inhibition [%]": -10.7}
{"Structure (SMILES)": "COc1c(N2CCNC(C)C2)c(F)cc2c(=O)c(C(=O)O)cn(C3CC3)c12 (stereo not shown)", "inhibition [%]": -22.8}
{"Structure (SMILES)": "N[C@@H](C(=O)N[C@@H]1C(=O)N2C(C(=O)O)=C(CSc3c[nH]nn3)CS[C@H]12)c1ccc(O)cc1", "inhibition [%]": 3.2}
{"Structure (SMILES)": "CCC(=O)NS(=O)(=O)c1ccc(-c2c(-c3ccccc3)noc2C)cc1", "inhibition [%]": -0.6}
{"Structure (SMILES)": "C[C@H](CS)C(=O)N1CCC[C@H]1C(=O)O", "inhibition [%]": -15.4}
{"Structure (SMILES)": "NS(=O)(=O)c1cc2c(cc1Cl)NCNS2(=O)=O", "inhibition [%]": -20.2}
{"Structure (SMILES)": "CCN(CC)CC1CCCCN1CC(=O)N1c2ccccc2C(=O)Nc2cccnc21 (stereo not shown)", "inhibition [%]": -1.7}
{"Structure (SMILES)": "C=CC1=C(C(=O)O)N2C(=O)[C@@H](NC(=O)/C(=N\\O)c3csc(N)n3)[C@H]2SC1", "inhibition [%]": -23.2}
{"Structure (SMILES)": "COc1ccccc1N1CCN(CC(O)COc2cccc3ccccc23)CC1 (stereo not shown)", "inhibition [%]": 12.2}
{"Structure (SMILES)": "C[C@H](CCC(=O)O)[C@H]1CC[C@H]2[C@@H]3C(=O)C[C@@H]4CC(=O)CC[C@]4(C)[C@H]3CC(=O)[C@]12C", "inhibition [%]": 9.5}
{"Structure (SMILES)": "O=c1c(O[C@@H]2O[C@H](CO)[C@@H](O)[C@H](O)[C@H]2O)c(-c2ccc(O)c(O)c2)oc2cc(O)cc(O)c12", "inhibition [%]": -11.6}
{"Structure (SMILES)": "O=C(O)Cc1ccccc1Nc1c(Cl)cccc1Cl", "inhibition [%]": -6.2}
{"Structure (SMILES)": "C[C@](N)(Cc1ccc(O)c(O)c1)C(=O)O", "inhibition [%]": -17.2}
{"data": "Study 5", "Compound": "CS(=O)(=O)c1cc(C2(NC(=O)c3cncc4c3cnn4-c3ccc(F)cc3)CC2)ccn1", "effect on": "cell-free assay", "technique": "competition with immobilised ligand", "concentration": "1 µM"}
{"target": "Ribosomal protein S6 kinase alpha-1, N-terminal kinase domain (RPS6KA1, Homo sapiens, UniProt Q15418)", "remaining binding [%]": 77}
{"target": "FRK (Homo sapiens, UniProt P42685)", "remaining binding [%]": 58}
{"target": "MAP2K3 (Homo sapiens, UniProt P46734)", "remaining binding [%]": 88}
{"target": "TYRO3 (Homo sapiens, UniProt Q06418)", "remaining binding [%]": 91}
{"target": "Tyrosine-protein kinase ABL1, non-phosphorylated (ABL1, Homo sapiens, UniProt P00519, H396P)", "remaining binding [%]": 100}
{"target": "TGFBR1 (Homo sapiens, UniProt P36897)", "remaining binding [%]": 100}
{"target": "PIK3C2G (Homo sapiens, UniProt O75747)", "remaining binding [%]": 93}
{"target": "PIK3C2B (Homo sapiens, UniProt O00750)", "remaining binding [%]": 84}
{"target": "Non-receptor tyrosine-protein kinase TYK2, JH2 (TYK2, Homo sapiens, UniProt P29597)", "remaining binding [%]": 100}
{"target": "CDK18 (Homo sapiens, UniProt Q07002)", "remaining binding [%]": 100}
{"target": "NEK6 (Homo sapiens, UniProt Q9HC98)", "remaining binding [%]": 100}
{"target": "KIT (Homo sapiens, UniProt P10721, V559D)", "remaining binding [%]": 100}
{"data": "Study 6", "target": "Beta-1 adrenergic receptor (ADRB1, Homo sapiens, UniProt P08588)", "action": "antagonist", "chain of UniProt P08588 (whole entry, looked up)": "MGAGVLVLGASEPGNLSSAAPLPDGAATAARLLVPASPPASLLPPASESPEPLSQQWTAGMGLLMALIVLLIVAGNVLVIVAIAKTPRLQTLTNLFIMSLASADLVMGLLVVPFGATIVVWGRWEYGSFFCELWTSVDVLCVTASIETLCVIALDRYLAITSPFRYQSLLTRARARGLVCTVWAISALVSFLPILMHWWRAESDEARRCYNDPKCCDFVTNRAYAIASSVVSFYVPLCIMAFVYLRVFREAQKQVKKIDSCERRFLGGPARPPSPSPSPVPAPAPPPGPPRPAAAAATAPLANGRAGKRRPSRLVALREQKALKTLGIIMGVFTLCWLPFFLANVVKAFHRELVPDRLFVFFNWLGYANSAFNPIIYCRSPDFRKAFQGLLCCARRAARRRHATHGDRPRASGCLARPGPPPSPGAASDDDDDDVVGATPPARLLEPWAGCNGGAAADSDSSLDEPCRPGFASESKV"}
{"Compound": "N#Cc1ccccc1NC(=O)c1sc2cc(F)ccc2c1Cl", "IC50 [µM]": "≥ 100"}
{"Compound": "Nc1nc(N)c2nc(-c3cccc(O)c3)c(-c3cccc(O)c3)nc2n1", "IC50 [µM]": "≥ 100"}
{"Compound": "COc1ccccc1-c1n[nH]c2ncc(-c3cccc(F)c3)nc12", "IC50 [µM]": "≥ 100"}
{"Compound": "Fc1ccc(-c2c[nH]c([C@@H]3COCCN3Cc3cnc4ccccc4c3)n2)cc1", "IC50 [µM]": "≥ 100"}
{"Compound": "Cn1cc(-c2cnc(NC(=O)c3cccnc3)c3c2CCO3)cn1", "IC50 [µM]": "≥ 100"}
{"Compound": "COc1ccccc1N1CCC(N2C(=O)N3CCCC3(C)C2=O)C1 (stereo not shown)", "IC50 [µM]": "≥ 100"}
{"Compound": "CC(CNc1nc(C(C)C)nc2c1cnn2C)Oc1cccnc1 (stereo not shown)", "IC50 [µM]": "≥ 100"}
{"Compound": "COCc1cc(NCC(O)COc2ccc(Cl)c(C)c2)ncn1 (stereo not shown)", "IC50 [µM]": "≥ 100"}
{"data": "Study 7", "Compound": "COc1ccc(-c2c(Nc3ccccn3)[nH]c3c(C4=CCCCC4)c(-c4ccccc4)nn3c2=O)cc1", "host": "human", "medium": "plasma", "route": "oral"}
{"conditions": "50 mg QD", "AUC(tau) extrapolated share [%]": 0}
{"conditions": "150 mg QD", "AUC(tau) extrapolated share [%]": 0}
{"conditions": "400 mg QD", "AUC(tau) extrapolated share [%]": 0}
{"data": "Other studies, line by line"}
{"SMILES": "CC(=O)N[C@@H](Cc1c[nH]c2ccccc12)C(=O)N[C@@H](CCC(=O)C=[N+]=[N-])C(=O)OC(C)C", "test": "UPLC-MS/MS", "test system": "EL4 tumor, C57BL/6 CES1-/- mice, tumor", "conditions": "subcutaneous, 0.3 mg/kg DON equivalent daily, 5 days", "how to read": "higher = more metabolite", "endpoint": "putrescine level", "result": "4.97e+06 a.u. and 4.96e+06 a.u. and 4.85e+06 a.u. and 3.64e+06 a.u. and 5.41e+06 a.u. and 3.77e+06 a.u."}
{"SMILES": "CCC[C@H]1NC(=O)[C@H](Cc2cc(Cl)ccc2-c2cnn(C)c2)N(C)C(=O)[C@H](CC(C)C)NC(=O)[C@@H](N(C)C(=O)[C@H](CCCCN2CCOCC2)NC(=O)[C@@H](c2cccnc2)C2CCCCC2)CCCCNC1=O", "tested on": "NCI-H446", "test": "cell counting", "conditions": "4.57 nM, 5 days", "how to read": "baseline: DMSO", "endpoint": "cell growth", "result": "81.1% and 86%"}
{"SMILES": "CCN1CCC[C@H]1CNC(=O)c1cc(S(N)(=O)=O)ccc1OC", "tested on": "mouse MPNST tumor cells", "test": "high-content immunofluorescence imaging, measured: nuclear SOX9", "conditions": "10 µM, 12 h, mean of 2 replicates", "how to read": "baseline: DMSO control, higher = more nuclear SOX9", "endpoint": "nuclear SOX9 intensity", "result": "102 % of DMSO"}
